Experimental data of several laboratories.
Protocols differ between the studies behind these lines. Values joined by “and” are separate records of one study, mostly repeats; a detail may differ. Numbers after ± are the reported error.
UniProt P04062, sequence (whole entry, unmodified, looked up): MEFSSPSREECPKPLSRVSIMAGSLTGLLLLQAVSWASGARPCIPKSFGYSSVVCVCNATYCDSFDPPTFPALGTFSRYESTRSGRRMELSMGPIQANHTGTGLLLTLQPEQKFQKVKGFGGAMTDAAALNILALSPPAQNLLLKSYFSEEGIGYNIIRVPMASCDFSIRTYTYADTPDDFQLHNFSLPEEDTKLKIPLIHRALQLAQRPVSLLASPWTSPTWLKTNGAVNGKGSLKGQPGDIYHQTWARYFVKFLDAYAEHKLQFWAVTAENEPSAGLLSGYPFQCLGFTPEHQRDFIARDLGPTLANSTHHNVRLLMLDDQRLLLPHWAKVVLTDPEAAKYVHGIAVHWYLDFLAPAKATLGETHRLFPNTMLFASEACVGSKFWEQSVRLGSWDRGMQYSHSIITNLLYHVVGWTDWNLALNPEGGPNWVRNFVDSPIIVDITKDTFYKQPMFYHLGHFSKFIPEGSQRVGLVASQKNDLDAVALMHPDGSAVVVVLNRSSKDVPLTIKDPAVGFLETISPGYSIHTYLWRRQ

OC[C@H]1[C@@H](O)[C@H](O)[C@@H](O)CN1CCCCCOCc1cccc(-c2ccccc2)c1
IC50 (GBA1 (Homo sapiens, UniProt P04062, R534H); inhibitor, 4MU-β-D-glucopyranoside; with: 4MU-β-D-glucopyranoside): 20 µM

COc1ccc(Nc2n[nH]c3nc(-c4ccccc4)nc(N)c23)cc1OC
IC50 (rhinovirus B5; viral cytopathic effect; HeLa): 6.95 µM

O=C(c1ccccc1Br)N1CCN(c2ccc(F)cc2)CC1
IC50 (Saccharomyces cerevisiae; microbial growth): > 20 µM

CC(c1c[nH]c2ccccc12)c1c[nH]c2ccccc12
IC50 (Clostridium sporogenes; microbial growth, absorbance): > 50 µM

CCN(CC)CC#CCNc1ccnc2cc(Cl)ccc12
IC50 (Plasmodium falciparum; parasite growth, LDH; 3D7): 0.06 µM and 0.047 µM

O=C(c1cccc(I)c1)N1CCN(c2ccc(F)cc2)CC1
IC50 (Saccharomyces cerevisiae; microbial growth): > 20 µM

Cc1ccc(Nc2n[nH]c3nc(-c4ccc(F)cc4)nc(N)c23)cc1
IC50 (rhinovirus B5; viral cytopathic effect; HeLa): 1.83 µM

c1ccc2c([C+](c3c[nH]c4ccccc34)c3c[nH]c4ccccc34)c[nH]c2c1
IC50 (Clostridium sporogenes; microbial growth, absorbance): > 50 µM

O=C(c1ccc(I)c([N+](=O)[O-])c1)N1CCN(c2ccccc2F)CC1
IC50 (Saccharomyces cerevisiae; microbial growth): < 20 µM

Br.CCCCCCn1c2c(c(=N)c3c1CCC3)CCC2
translation activity (Trypanosoma cruzi; reporter mRNA translation, inhibitor, measured: capped polyadenylated Renilla luciferase mRNA; cell-free extract; concentration not given; relative to: positive over negative control): 95.8% and 88.2% and 91.7% and 102%

COc1ccc(N2CCN(C(=O)c3ccc(Cl)c([N+](=O)[O-])c3)CC2)cc1
IC50 (Saccharomyces cerevisiae; cell growth; wild type): 4.03 ± 1.9 µM

Nc1nc(-c2cccc(C(F)(F)F)c2)nc2[nH]nc(Nc3ccccc3)c12
IC50 (rhinovirus B5; viral cytopathic effect; HeLa): 4.05 µM

O=C(c1ccc(Cl)c([N+](=O)[O-])c1)N1CCN(c2ccc(F)cc2)CC1
IC50 (Saccharomyces cerevisiae; growth; ho∆/HO diploid control): 12.5 ± 2.8 µM

O=C(NCC(O)(Cn1cncn1)c1ccc(F)cc1F)[c-]1cccc1.[Cl-].[Co+3].c1cc[cH-]c1 (racemic)
IC50 (Trypanosoma cruzi; parasite growth, resazurin; 24 h, trypomastigote): 17.6 µM

Nc1nc(-c2ccccc2)nc2[nH]nc(Nc3ccc(OC(F)(F)F)cc3)c12
IC50 (rhinovirus B5; viral cytopathic effect; HeLa): 0.14 µM

COC1C=COC2(C)Oc3c(C)c(O)c4c(c3C2=O)C2=NC3(CCN(CC(C)C)CC3)NC2=C(NC(=O)C(C)=CC=CC(C)C(O)C(C)C(O)C(C)C(OC(=O)Nc2cnccn2)C1C)C4=O (centres unmarked)
IC50 (Mycobacteroides abscessus; bacterial growth; subsp. abscessus clinical isolate; slow grower): 0.015 µM

Fc1ccccc1N1CCN(C2CCCN(Cc3cccc(C(F)(F)F)c3)C2)CC1 (centres unmarked)
translation activity (Trypanosoma cruzi; reporter mRNA translation, inhibitor, measured: Renilla luciferase mRNA; cell-free extract; concentration not given, test 2; relative to: positive over negative control): 91.1% and 136%

c1ccc(CC(c2c[nH]c3ccccc23)c2c[nH]c3ccccc23)cc1
IC50 (Clostridium sporogenes; microbial growth, absorbance): > 50 µM

Cc1ccc(C(=O)N2CCN(c3ccc(F)cc3)CC2)cc1
IC50 (Saccharomyces cerevisiae; cell growth; wild type): > 200 µM

Nc1nc(-c2ccccc2)nc2[nH]nc(Nc3cccc(F)c3F)c12
IC50 (rhinovirus B5; viral cytopathic effect; HeLa): 0.01 µM

CCCOC(=O)N1c2cc(CNC)ccc2[C@H](NC(=O)C(=O)Nc2ccc(Cl)c(F)c2)[C@H]1CNC(=N)N
IC50 (HIV-1; viral infection; TZM-bl, CRF02_AG 235-47 Env pseudovirus): 0.596 µM

CS(=O)(=O)c1ccc(Nc2n[nH]c3nc(-c4ccccc4)nc(N)c23)cc1
IC50 (rhinovirus B5; viral cytopathic effect; HeLa): 0.55 µM

O=C(N1CCc2ccccc21)n1ccnn1
IC50 (Phelipanche ramosa; seed germination, antagonist; with: 2-PEITC 100 nM): 5.3 µM

Repeated from above:
OC[C@H]1[C@@H](O)[C@H](O)[C@@H](O)CN1CCCCCOCc1cccc(-c2ccccc2)c1
IC50 (GBA1 (Homo sapiens, UniProt P04062, R534H); inhibitor, 4MU-β-D-glucopyranoside; with: 4MU-β-D-glucopyranoside): 20 µM

COc1ccc(Nc2n[nH]c3nc(-c4ccccc4)nc(N)c23)cc1OC
IC50 (rhinovirus B5; viral cytopathic effect; HeLa): 6.95 µM

O=C(c1ccccc1Br)N1CCN(c2ccc(F)cc2)CC1
IC50 (Saccharomyces cerevisiae; microbial growth): > 20 µM

CC(c1c[nH]c2ccccc12)c1c[nH]c2ccccc12
IC50 (Clostridium sporogenes; microbial growth, absorbance): > 50 µM
